Results collected from several papers.
Every numbered part comes from another study and shows a few of its results, in no order.

Study 1
Target: Interferon regulatory factor 7, full length, phosphomimetic (IRF7, Homo sapiens, UniProt Q92985, residues 1-503, S471D/S472D/S475D/S476D/S477D/S483D/S484D/S487D)
Chain of UniProt Q92985 (whole entry, unmodified, looked up): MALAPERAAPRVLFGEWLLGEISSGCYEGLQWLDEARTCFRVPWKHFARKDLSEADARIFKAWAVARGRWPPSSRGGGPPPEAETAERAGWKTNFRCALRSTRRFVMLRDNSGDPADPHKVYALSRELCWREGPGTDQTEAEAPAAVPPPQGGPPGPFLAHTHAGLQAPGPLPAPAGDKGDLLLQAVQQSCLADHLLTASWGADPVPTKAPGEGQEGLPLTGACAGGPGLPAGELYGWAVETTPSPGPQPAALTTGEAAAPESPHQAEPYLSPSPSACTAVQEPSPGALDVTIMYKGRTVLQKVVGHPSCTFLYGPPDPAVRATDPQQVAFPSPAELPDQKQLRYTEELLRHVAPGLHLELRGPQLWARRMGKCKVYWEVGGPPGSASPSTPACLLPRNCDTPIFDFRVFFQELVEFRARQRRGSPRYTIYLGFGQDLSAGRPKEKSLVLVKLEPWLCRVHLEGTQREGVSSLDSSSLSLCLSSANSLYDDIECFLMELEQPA
Method: protein-binding microarray
Molecule type: double-stranded DNA, one strand shown
Sample: in vitro
Tested at: 2200 nM top
Setting: 60-bp whole probe
With: salmon DNA 0.4 mg/ml
Relative to: random background probes
Reading: higher = stronger binding
Shared flanks, not repeated: GCCTAGCAC … GTCTTGATTCGCTTGACGCTGCTG
Sequence	fitted relative affinity
CTGTTTTTGCTTTCCTTCATGTGCTAG	5.53 z-score
ATAGGTTTCGGTTCCGGTTAGTGCTAG	11.8 z-score
TGGTGTCTCTGGCCTGGGTCGGTGCTA	-0.433 z-score
TTAGGACTGGGGTATCGCTTAGTGCTA	-0.52 z-score
TTAGAACTGAGTTTCCATTAGTGCTAG	0.862 z-score

Study 2
Target: RING finger protein unkempt homolog, zinc fingers 1-6, GST-SBP tag (UNK, Homo sapiens, UniProt Q9C0B0, residues 30-357)
Method: RNA Bind-n-Seq
Molecule type: RNA
Sample: in vitro
Tested at: not given
Setting: RNA with constant flanks, human and mouse sites, ends assumed
Relative to: input RNA pool
Reading: higher = stronger binding
Shared flanks, not repeated: GGGAGUUCUACAGUCCGACGAUC … CAACAGAGGAUUGAGCAUCA
Residues (chain): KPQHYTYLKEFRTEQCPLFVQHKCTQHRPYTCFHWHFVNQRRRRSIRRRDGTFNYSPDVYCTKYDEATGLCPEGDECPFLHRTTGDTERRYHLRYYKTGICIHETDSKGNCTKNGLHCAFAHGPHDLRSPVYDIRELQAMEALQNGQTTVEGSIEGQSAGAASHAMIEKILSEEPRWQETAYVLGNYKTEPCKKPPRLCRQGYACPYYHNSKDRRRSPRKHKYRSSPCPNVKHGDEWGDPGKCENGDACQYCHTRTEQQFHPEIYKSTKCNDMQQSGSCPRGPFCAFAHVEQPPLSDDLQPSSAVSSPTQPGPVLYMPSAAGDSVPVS
Sequence	bound/input enrichment
CUGCCCAAGAAGACCGAGAGCCACCACAAGGCCAAGGGCAAGUGAGGCCCCUACCGGUCGUUAGUGCGACUUUUACAGACACCAAAGGCUCUUUUCAGAGCCACCCACAACCUCAUUAGA	0.745 ratio
ACAUCCUCAGUUUUUCAUGAAGUUUCUAGACCCAAACCGUUAUCGGCAUUUCCAAAGAAAGCUAUAACUGGAACAGUGUUAACCCGAUCUACGUUCAUCAGCAAUGUUUUAUCUAAAAUU	0.201 ratio
AAGAAAUCGAGAGUCCGAGCCCAGCAUAUUGUGCCCUGUACCAUAUCCCAGCUGCUUUCUGCUACUCUGACUGAUGAAGUGUUCAGAAUUGGAGAUGUCGAGAUUUCACAGGUCACUAUU	0.106 ratio
UGGUAACAAGAGACUGGAUGCCGCCUAUCGUUCCAUGAAUGGGAAGGGUCCCGUGUACUUACUUUUCAGUGUCAACGGCAGUGGACACUUCUGUGGAGUUGCAGAGAUGAAAUCUGCUGU	0.091 ratio
AAUACAUUUGUUCCAAUGGGGAGCUUGGAAGAUGGCGUUCCCAGAAAGUAUUUUAAUAUCAAUAGACCACAGCCAAAGCCUUAAAUCAAACCCACACACAACUGAAAAUUGCCUCCUCCA	1.73 ratio
AUUAAUGAGGGCCUUAAAGCGGCUGACAAUGACCCCACAGCUCCACCAUAUGACUCCCUGUUAGUGUUUGACUAUGAAGGCAGUGGCUCCACUGCUGGGUCCUUGAGCUCCCUUAAUUCC	1.34 ratio

Study 3
Target: Histone acetyltransferase KAT6A, winged helix 2, GST fusion (KAT6A, Homo sapiens, UniProt Q92794, residues 85-181)
Method: protein binding microarray
Molecule type: double-stranded DNA, one strand shown
Sample: in vitro
Tested at: not given
Setting: 8-mer, flanks averaged, mean of 2 arrays, mostly near background
Relative to: not given
Reading: higher = stronger binding
Construct (chain): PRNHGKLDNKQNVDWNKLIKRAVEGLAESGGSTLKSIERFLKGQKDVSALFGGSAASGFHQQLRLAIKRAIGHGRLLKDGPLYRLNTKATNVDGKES
Sequence	E-score
ACATCATC	-0.0378
AAACTATC	0.0155
AAGTAGAA	-0.11
CTGTAAGA	-0.189

Single results of other studies
Substance	target	assay	test system	conditions	scale	quantity	value
PhoQ, residues 284 288 289 292 302 303 NLCILV	PhoP, residues 12 14 15 18 19 NMSSL (Escherichia coli, UniProt P23836)	Sort-seq, measured: YFP reporter	E. coli	PhoQ-PhoP variant library, with: 10 µM Mg2+	relative to: high Mg2+ state, higher = stronger signaling	fold induction	17

Some of these lines once more (single results of other studies):
Substance	target	assay	test system	conditions	scale	quantity	value
PhoQ, residues 284 288 289 292 302 303 NLCILV	PhoP, residues 12 14 15 18 19 NMSSL (Escherichia coli, UniProt P23836)	Sort-seq, measured: YFP reporter	E. coli	PhoQ-PhoP variant library, with: 10 µM Mg2+	relative to: high Mg2+ state, higher = stronger signaling	fold induction	17
